Assay results collected from several papers.
“And” joins repeats or separate records; there may be more than shown. Numbers after ± are the reported error.
TRPM8: Transient receptor potential cation channel subfamily M member 8 (TRPM8, Homo sapiens, UniProt Q7Z2W7)
MAOA: Amine oxidase [flavin-containing] A (MAOA, Homo sapiens, UniProt P21397)
Kir3.1/Kir3.2: Kir3.1/Kir3.2 (Homo sapiens, UniProt P48051+P48549)
NADH dehydrogenase [ubiquinone] iron-sulfur protein 7, mitochondrial/NADH dehydrogenase [ubiquinone] iron-sulfur protein 2, mitochondrial/MT-ND1: NADH dehydrogenase [ubiquinone] iron-sulfur protein 7, mitochondrial/NADH dehydrogenase [ubiquinone] iron-sulfur protein 2, mitochondrial/MT-ND1 (Homo sapiens, UniProt O75251+O75306+P03886)
GAP50: Glideosome-associated protein 50 (GAP50, Plasmodium falciparum, UniProt Q8I2X3)
FFAR4: Free fatty acid receptor 4 (FFAR4, Homo sapiens, UniProt Q5NUL3)
Nuclear receptor subfamily 4 group A member 2 LBD: Nuclear receptor subfamily 4 group A member 2, LBD (Homo sapiens, UniProt P43354)
PDE1C isoform PDE1C2: Dual specificity calcium/calmodulin-dependent 3',5'-cyclic nucleotide phosphodiesterase 1C, isoform PDE1C2 (PDE1C, Homo sapiens, UniProt Q14123)

`Cc1cncc2cccc(S(=O)(=O)N3CCCN(C(=O)CN)C[C@@H]3C)c12` has a remaining activity of 90.6 ± 6.56% (TRPM8; antagonist; HEK293; 5 µM; reference: control).
The Hill slope of `O=C(ON1C(=O)CCC1=O)c1cc(C(F)(F)F)cc(C(F)(F)F)c1` is reported as 3.7 (CD209 antigen (CD209, Homo sapiens, UniProt Q9NNX6); binding, grating-coupled interferometry; Man(α1,2)Man-PEG3 chip).
`O=c1nc(SCc2cc(F)cc(C(F)(F)F)c2)nc(SCc2ccc3sccc3c2)[nH]1`: “mean relaxed DNA” 47.5% (TOP2A (Homo sapiens, UniProt P11388); DNA relaxation; 15.6 µM).
The EC of `Cc1cccc(C(=O)NCc2ccc(CNS(=O)(=O)c3ccccc3)cc2)c1` is reported as 1000 nM (CXCR4 (Homo sapiens, UniProt P61073); binding, inhibitor, competitive binding; MDA-MB-231; with: biotinylated TN14003).
`COc1ccc(CN)cc1` has a kcat of 0.1833 ± 0.00135 s⁻¹ (MAOA; substrate; pH 9.0, α,α-protio substrate).
`O=C(COc1cccc(Cl)c1Cl)Nc1cc(C2CCC2)nn1CC(F)(F)F` has an Emax of 34% (Kir3.1/Kir3.2; thallium flux, activator; HEK293; reference: standard compound).
For `CN(C)c1ccc2nc3ccc(=[N+](C)C)cc-3sc2c1`, the ThT fluorescence was 2 ± 6% (MAPT (Homo sapiens, UniProt P10636); fibril formation, ThT fluorescence; 5-fold of tau, at plateau, with: wild-type tau 10 µM, heparin; reference: untreated).
The Hill slope of `Cn1cc(C(=O)N2CCc3ccccc32)c2ccccc21` is reported as 1.4 (3-oxoacyl-[acyl-carrier-protein] reductase FabG (fabG, Pseudomonas aeruginosa, UniProt O54438); enzyme activity, inhibitor, NADPH fluorescence; reverse reaction, with: 3-OH-decanoyl-NAC, NADP).
`NC(=O)NOCCCCCCCCCCCCCCCCCCCC[P+](c1ccccc1)(c1ccccc1)c1ccccc1.O=C([O-])C(F)(F)F` — result for “oxygen consumption rate”: 88.7 ± 7.81% (NADH dehydrogenase [ubiquinone] iron-sulfur protein 7, mitochondrial/NADH dehydrogenase [ubiquinone] iron-sulfur protein 2, mitochondrial/MT-ND1; complex I-dependent respiration, Seahorse XF96; HCT-116; 0.2 µM, 24 h; reference: control).
For `NCCCCC(=O)O`, “normalised MST signal” read 0.0132 (SLC6A6 (Homo sapiens, UniProt P31641, Y138A); binding, microscale thermophoresis; 30.5 nM, room temperature, with: 50 nM labelled protein; higher = more binding).
`O=C(COc1cc(Cl)ccc1Cl)Nc1cc(C2CCC2)nn1CC(F)(F)F` has an Emax of 36% (Kir3.1/Kir3.2; thallium flux, activator; HEK293; reference: standard compound).
`c1cncc(NCc2ccc(-c3cc4ccncc4cc3OC3CCNCC3)s2)c1` has a kon of 8680 M⁻¹ s⁻¹ (GAP50; binding, surface plasmon resonance; 1:1 binding model).
For `Nc1ncnc2c1ncn2[C@H]1C[C@@H]2OP(=O)(O)OC[C@H]2O1`, “relative binding affinity” read 0.0342 (anti-cAMP antibody; antibody binding, competitive cAMP EIA; concentration not given, acetylated samples; reference: EC50 cAMP over EC50 cpd, higher = stronger binding).
For `COc1cc2c(cc1O)[C@@H](Cc1ccc(O)cc1)[N+](C)(C)CC2`, the koff was 0.0116 s⁻¹ (GAP50; binding, surface plasmon resonance; 1:1 binding model).
The Hill coefficient of `Nc1nc2c(F)cccc2[nH]1` is reported as 1.13 ± 0.1 (HVCN1 (Homo sapiens, UniProt Q96D96); proton current, inhibitor, inside-out patch clamp; Xenopus oocytes; dimeric channel).
The remaining activity of `C=CC(=O)N1CCC[C@@H](n2nc(-c3ccc(Oc4ccccc4)cc3)c3c(N)ncnc32)C1` is reported as 785% (ABL2 (Homo sapiens, UniProt P42684); 0.1 µM).
For `CC1=C(/C=C/C(C)=C/C=C/C(C)=C/C=C/C=C(C)/C=C/C=C(C)/C=C/C2=C(C)CCCC2(C)C)C(C)(C)CCC1`, “quenching rate constant” read 1.14e+12 ± 1.3e+11 M⁻¹ s⁻¹ (Beta-lactoglobulin (LGB, Bos taurus, UniProt P02754); intrinsic fluorescence; 303 K).
The kcat of `NCc1ccccc1` is reported as 0.16 ± 0.00152 s⁻¹ (MAOA; substrate; pH 9.0).
`NCCCC(=O)O` gave a thermal shift of 5.32 °C and 3.97 °C (uncharacterized protein (Pelagibacter ubique, UniProt Q4FKZ8); differential scanning fluorimetry; Candidatus Pelagibacter ubique; in-house screen).
For `C=CC(=O)N1CCC(COCC(=O)N2CCN(c3nc(-c4cnc(N)nc4C(F)F)nc(N4CCOC[C@@H]4C)n3)CC2)CC1`, the remaining binding was 72% (MAP3K12 (Homo sapiens, UniProt Q12852); KINOMEscan; 1 µM; reference: DMSO control).
The Ki ratio of `O=C(c1ccc(CNCCCN2CCN(C3CCCCC3)CC2)cc1)c1ccc([N+](=O)[O-])cc1` is reported as 39.8 (TMEM97 (Homo sapiens, UniProt Q5BJF2); radioligand binding; RT-4 cell membranes; reference: sigma1 Ki over sigma2 Ki).
With `O=Nc1c(NCCCc2ccccc2)[nH]c(=O)[nH]c1=O` the inhibition was 15 ± 12% (FFAR4; antagonist, β-arrestin recruitment; CHO cells; 10 µM).
The GABA current of `COc1cccc(-n2nc3c4cc(Cl)ccc4[nH]cc-3c2=O)c1` is reported as 130 ± 4% (Gamma-aminobutyric acid receptor subunit alpha-4/beta-3, with delta subunit (Rattus norvegicus, UniProt P28471+P63079); modulator, two-electrode voltage clamp; α4β3δ receptor; 30 µM, with: GABA EC3-10; reference: GABA alone).
`Nc1ncnc2c1ncn2[C@@H]1O[C@H](CSCC[C@H](N)C(=O)O)[C@@H](O)[C@H]1O`: “cooperativity factor σ” 37.8 (O-methyltransferase (Sorghum bicolor, UniProt A0A1B6PFV1); biolayer interferometry; with: saturating PTR).
The inhibition of `CC[C@@H]1[C@H](F)C(=O)N[C@@H]1COc1nccc2cc(C(N)=O)c(OC)cc12` is reported as 7.8% (CAMK1D (Homo sapiens, UniProt Q8IU85); ATP-site probe binding, ActivX profiling; THP-1 cell lysate; 0.01 mM, Lys1 site).
`CCNc1cc(=O)[nH]c(=O)[nH]1` has an inhibition of 13 ± 2% (FFAR4; antagonist, β-arrestin recruitment; CHO cells; 10 µM).
`Cc1cc2ncc(-c3ccccc3)nc2cc1C` has a remaining activity of 101 ± 3.95% (TRPM8; antagonist; HEK293; 5 µM; reference: control).
For `CCCCCCCCN(C)c1cc(=O)[nH]c(=O)[nH]1`, the agonist effect was 1% (FFAR4; agonist, β-arrestin recruitment; CHO cells; 10 µM; reference: 30 µM TUG-891).
`NC(Cc1cc(I)c(Oc2cc(I)c(O)c(I)c2)c(I)c1)C(=O)O` (stereo not drawn): “activity relative to T3” 19.1% (Thyroxine 5-deiodinase (DIO3, Homo sapiens, UniProt P55073, C168G); deiodination, substrate; concentration not given; reference: T3).
The activation of `Clc1ccc(C(c2c[nH]c3ccccc23)c2c[nH]c3ccccc23)cc1` is reported as 1.24 fold (Nuclear receptor subfamily 4 group A member 2 LBD; reporter gene, Gal4 hybrid reporter; 10 µM; reference: vehicle).
`CCCCCCCCNc1[nH]c(=O)[nH]c(=O)c1N=O` has an agonist effect of 0 ± 1% (FFAR4; agonist, β-arrestin recruitment; CHO cells; 10 µM; reference: 30 µM TUG-891).
With `CC[C@H](C)C(=O)O[C@H]1C[C@H](O)C=C2C=C[C@H](C)[C@H](CC[C@@H](O)C[C@@H](O)CC(=O)O)[C@H]21` the activation was 1.18 fold (Nuclear receptor subfamily 4 group A member 2 LBD; reporter gene, Gal4 hybrid reporter; 10 µM; reference: vehicle).
`CC(C)(C)c1ccc(CCNc2cc(=O)[nH]c(=O)[nH]2)cc1` has an agonist effect of -1 ± 1% (FFAR4; agonist, β-arrestin recruitment; CHO cells; 10 µM; reference: 30 µM TUG-891).
`NC(=O)NOCCCCCCCCCCCCCC[P+](c1ccccc1)(c1ccccc1)c1ccccc1.O=C([O-])C(F)(F)F` — result for “oxygen consumption rate”: 64.3 ± 3.13% (NADH dehydrogenase [ubiquinone] iron-sulfur protein 7, mitochondrial/NADH dehydrogenase [ubiquinone] iron-sulfur protein 2, mitochondrial/MT-ND1; complex I-dependent respiration, Seahorse XF96; HCT-116; 0.5 µM, 24 h; reference: control).
The remaining activity of `CC(C)n1cnc2c(Nc3cccc(Cl)c3)nc(NCCO)nc21` is reported as 98.7 ± 8.51% (TRPM8; antagonist; HEK293; 5 µM; reference: control).
With `Nc1ncnc2c1ncn2[C@@H]1O[C@H](COP(=O)(O)OP(=O)(O)OP(=O)(O)O)[C@@H](O)[C@H]1O` the normalized current was 0.034 and 0.01 and 0.0333 (P2X purinoceptor 7 (P2rx7, Rattus norvegicus, UniProt Q64663, I214G); ion current, agonist, two-electrode voltage clamp; Xenopus laevis oocytes; 33.3 µM; reference: highest concentration response).
The ΔH of `Nc1ncnc2c1ncn2[C@@H]1O[C@H](CO[P@](=O)(O)O[P@](=O)(O)O[P@@](=O)(O)S)[C@@H](O)[C@H]1O` is reported as -3.29 ± 0.36 kcal/mol (GUK1 (Homo sapiens, UniProt Q16774, K17A); binding, ITC).
`O=C1O/C(=C\c2cc(F)ccc2OCCN2CC[C@@H](F)C2)c2cc(Cc3cccc(F)c3)[nH]c(=O)c21`: “binding free energy” -11.5 kcal/mol (PDE1C isoform PDE1C2; enzyme activity, inhibitor; with: 3H-cGMP substrate).
The specific binding of `Nc1ncnc2c1ncn2[C@@H]1O[C@H](COP(=O)(O)CP(=O)(O)OP(=O)(O)O)[C@@H](O)[C@H]1O` is reported as 7300 CCPM and 7510 CCPM and 2960 CCPM and 8550 CCPM and 5290 CCPM (P2X purinoceptor 1 (P2RX1, Homo sapiens, UniProt P51575); saturation binding; HEK293; 52 nM).
`O=C1O/C(=C\c2cc(F)ccc2OCCCN2CCOCC2)c2cc(Cc3cccc(F)c3)[nH]c(=O)c21` — result for “binding free energy”: -11 kcal/mol (PDE1C isoform PDE1C2; enzyme activity, inhibitor; with: 3H-cGMP substrate).
Under “oxygen consumption rate”, `NC(=O)NO` is recorded as 86.1 ± 3.5% (NADH dehydrogenase [ubiquinone] iron-sulfur protein 7, mitochondrial/NADH dehydrogenase [ubiquinone] iron-sulfur protein 2, mitochondrial/MT-ND1; complex I-dependent respiration, Seahorse XF96; HCT-116; 150 µM, 24 h; reference: control).
The cAMP decrease of `Ic1ccc(N2CCN(Cc3c[nH]c4ncccc34)CC2)cc1` is reported as 42 ± 9.2% (Drd2 (Rattus norvegicus, UniProt P61169); forskolin-stimulated cAMP, agonist, AlphaScreen; HEK293 expressing D2; concentration not given, with: forskolin).
`O=C(COc1cccc(Cl)c1Cl)Nc1cc(C2CCC2)nn1C1CCC(F)(F)CC1` has an Emax of 30% (Kir3.1/Kir3.2; thallium flux, activator; HEK293; reference: standard compound).
`O=c1[nH]c(NCCCc2ccccc2)c(Br)c(=O)[nH]1` has an inhibition of 14 ± 1% (FFAR4; antagonist, β-arrestin recruitment; CHO cells; 10 µM, with: 4 µM TUG-891).
`Nc1ccc(C(=O)O)cc1` has a current density of 9.35 pA/pF and 15.6 pA/pF and 17.5 pA/pF and 36.5 pA/pF and 5.11 pA/pF and 6.61 pA/pF and 22.1 pA/pF (BEST1, with wild-type BEST1 (Homo sapiens, UniProt O76090, R218H); ion current, whole-cell patch clamp; HEK293 co-expressing mutant and wild-type; concentration not given, voltage 80 mV).
`c1ccc(Oc2ccc(-c3cc(N4CCOCC4)n[nH]3)cc2)cc1` gave a kon of 14800 M⁻¹ s⁻¹ (GAP50; binding, surface plasmon resonance; 1:1 binding model).
With `[O-][S+]1CCCCS1` (stereo not drawn) the target engagement was 25.9 % cross-linked dimer (SOD1 (Homo sapiens, UniProt P00441, G94A); intact protein LC-MS; SOD1 G93A transgenic mice, whole blood; oral, 150 mg/kg, 48 h, mean of two mice).
With `CC(C)(C)NC(=O)[C@@H]1CN(Cc2cnc3occc3c2)CCN1C[C@@H](O)C[C@@H](Cc1ccccc1)C(=O)N[C@H]1c2ccccc2C[C@H]1O` the kon was 98700 M⁻¹ s⁻¹ (GAP50; surface plasmon resonance).
The inhibition of `CCCCCNc1cc(=O)[nH]c(=O)[nH]1` is reported as 17 ± 1% (FFAR4; antagonist, β-arrestin recruitment; CHO cells; 10 µM, with: 4 µM TUG-891).
`NC(=O)NOCCCCCCCCCCCCCCCC[P+](c1ccccc1)(c1ccccc1)c1ccccc1.O=C([O-])C(F)(F)F` — result for “oxygen consumption rate”: 64.3 ± 7.02% (NADH dehydrogenase [ubiquinone] iron-sulfur protein 7, mitochondrial/NADH dehydrogenase [ubiquinone] iron-sulfur protein 2, mitochondrial/MT-ND1; complex I-dependent respiration, Seahorse XF96; HCT-116; 0.5 µM, 24 h; reference: control).
For `CC(=O)Nc1ccc(O)cc1`, “chemical shift change” read 0.03 ppm (BRD4 (Homo sapiens, UniProt O60885); 19F NMR, refers to: tyrosine 65; 746 µM; reference: free protein).
